{"data": "Experimental data collected from several papers", "note": "A part holds a random share of what one study measured."}
{"data": "Study 1", "target": "RNA binding protein fox-1 homolog 2, RRM domain, GST-SBP tag (RBFOX2, Homo sapiens, UniProt O43251-10, residues 100-194)", "technique": "RNA Bind-n-Seq", "molecule type": "RNA", "medium": "in vitro", "tested at": "365 nM", "notes": "natural RNA segment, single round, ends assumed", "relative to": "no-protein control", "direction": "higher = stronger binding"}
{"Sequence": "GGGAGUUCUACAGUCCGACGAUCACACCGGGCGCGCAUAACCACCCCUAAUCCCGGUAUUCAGUGGUGAUGCCUAAAGGAAUGUCAGAAAUUUCCGGGUUUUGUCUAUUGUUGACGCCUACAGGGAAUGUGAAUGGAAUUCUCGGGUGCCAA", "RBNS enrichment (R)": 4.59}
{"Sequence": "GGGAGUUCUACAGUCCGACGAUCAGUGGCUGCUGGCUCUCAAGCUGCCAUUUUUUCCUGAUGCAAAAAAUGAAAGCAGGCAAAAGUGCUGUCAUUGUGAUACCGUCCCACUCAGAUGUCUAACGGGAGCUUGCUGGAAUUCUCGGGUGCCAA", "RBNS enrichment (R)": 0.535}
{"Sequence": "GGGAGUUCUACAGUCCGACGAUCGGUCUUAGAUACCAGCUACCUACGAGAGAGAGAGAAAUUGGUUUGUAAUAUCAGUGUAAGUAAAAUCCUGAUUCCAUAAACCUGGUUGUAUUUAAAACAAAAAACAAAACUGGAAUUCUCGGGUGCCAA", "RBNS enrichment (R)": 0.369}
{"Sequence": "GGGAGUUCUACAGUCCGACGAUCAUGAUAAGUAAAGGCCCCUAGUCCUGCACAGGAGGCUGAGGCAGGAGAAUUGUUUAGUCCUGGAAUAGAUAGUAAAAGCCUGUCUCAGAAUACACAAGCAGAGAAGGAUCUGGAAUUCUCGGGUGCCAA", "RBNS enrichment (R)": 0.39}
{"data": "Study 2", "target": "Histone acetyltransferase KAT6A, winged helix 2, GST fusion (KAT6A, Homo sapiens, UniProt Q92794, residues 85-181)", "technique": "protein binding microarray", "molecule type": "double-stranded DNA, one strand shown", "medium": "in vitro", "tested at": "not given", "notes": "8-mer, flanks averaged, mean of 2 arrays, mostly near background", "relative to": "not given", "direction": "higher = stronger binding", "Residues (chain)": "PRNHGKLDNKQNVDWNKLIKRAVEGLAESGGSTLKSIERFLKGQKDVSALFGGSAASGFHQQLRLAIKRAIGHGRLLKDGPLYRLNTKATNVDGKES"}
{"Sequence": "AGCCCACC", "E-score": -0.0385}
{"Sequence": "CACTGCAC", "E-score": 0.0556}
{"Sequence": "ATCGGCGC", "E-score": 0.0917}
{"Sequence": "AGTATCTA", "E-score": -0.137}
{"Sequence": "CGCATATA", "E-score": -0.136}
{"Sequence": "ATTCGCTA", "E-score": -0.186}
{"Sequence": "AGTAGCTA", "E-score": -0.0292}
{"data": "Study 3", "target": "Sal-like protein 4, full length isoform B (SALL4, Homo sapiens, UniProt Q9UJQ4-2, residues 1-616)", "technique": "universal PBM", "molecule type": "double-stranded DNA, one strand shown", "medium": "in vitro", "tested at": "not given", "notes": "8-mer, flanks averaged, mean of replicates", "direction": "higher = stronger binding"}
{"Sequence": "TGTTACAA", "E-score": 0.198}
{"Sequence": "GCATATCA", "E-score": 0.212}
{"Sequence": "ACAAAAGA", "E-score": 0.211}
{"Sequence": "ATCTTTCG", "E-score": -0.0489}
{"Sequence": "ATCAAGGG", "E-score": 0.0597}
{"Sequence": "GCTAATTA", "E-score": 0.138}
{"data": "Further values, each from its own experiment"}
{"Molecule": "PhoQ, residues 284 288 289 292 302 303 TASMAF", "target": "PhoP, residues 12 14 15 18 19 LHTVM (Escherichia coli, UniProt P23836)", "test": "Sort-seq, refers to: YFP reporter", "test system": "E. coli", "conditions": "PhoQ-PhoP variant library, added: 10 µM Mg2+", "scale": "relative to: high Mg2+ state, higher = stronger signaling", "quantity": "fold induction", "result": 14.7}
